Results from different studies.
Each line is one published result; not all experiments were run side by side. ± marks the error that the study gave.
Fibroin-modulator-binding protein-1: Fibroin-modulator-binding protein-1 99-193 (Bombyx mori, UniProt Q5FBS0)
HLA class I histocompatibility antigen, A alpha chain allele A*02:01: HLA class I histocompatibility antigen, A alpha chain, allele A*02:01 (Homo sapiens, UniProt P04439)

Molecule | target or system | assay | system | conditions | scale | quantity | result
ACDDQNPWRAYLDLLFPTDTLLLDLLW |  | ex vivo fluorescence imaging | peptide, BALB/c mice, 4T1 tumour-bearing, liver | intravenous, 5 nmol, 4 h post-injection | higher = more uptake | mean fluorescence intensity | 1450 ± 318 a.u.
colistin | Pseudomonas aeruginosa |  | clinical isolate RKI 230/10 |  |  | MIC | ≤ 1 mg/L
epoetin alfa | UT7/EPO | phosphorylation, agonist, measured: phospho-STAT5 |  | 10 min |  | EC50 | 9 pM
NRVDSKETEC | human MAGI1-2/6 PDZ construct (MBP fusion) | automated holdup | peptide, crude extract | concentration not given, corrected by standard peak, unit not given | reference: biotin control resin, higher = stronger binding | binding intensity | -0.133
tripeptidyl peptidase 2 |  | co-immunoprecipitation | human RBC membrane | DSSO crosslinker, unit not given, together with: Band 3 peptide 1-56 bait | reference: negative control | co-IP enrichment | 594
EKPIDSETKM | human SCRIB PDZ3-4 tandem (MBP fusion) | automated holdup | peptide, crude extract | concentration not given, uncorrected, unit not given | reference: biotin control resin, higher = stronger binding | binding intensity | 0.35
adenosylhomocysteinase |  | co-immunoprecipitation | human RBC cytosol | unit not given, together with: Band 3 peptide 1-56 bait | reference: negative control | co-IP enrichment | 0
ATGGATGGATGG (dsDNA) | Fibroin-modulator-binding protein-1 | ITC | double-stranded DNA, one strand shown |  |  | Kd | 1.68 ± 0.11 µM
IMQLMPFGCL | HLA class I histocompatibility antigen, A alpha chain allele A*02:01 | conformational ELISA | peptide | concentration not given | reference: positive control peptide, direction not given | binding score | 33.5%
MTVCNASQRQAHAQATAVSL | T47D | phage binding | peptide |  | reference: targeting over control phage | selectivity ratio | 1.2 ± 0.19
GSGAGIESNV | human MAGI1-3/6 PDZ construct (MBP fusion) | automated holdup | peptide, crude extract | concentration not given, corrected by standard peak, unit not given | reference: biotin control resin, higher = stronger binding | binding intensity | 0.0507
GLFQWIYRA | Jurkat T cells expressing 1G4 TCR | NFAT-eGFP reporter, flow cytometry | peptide | concentration not given, HLA-A*02:01 NY-ESO system |  | reporter activation | 0.28%
GSGAGIATEV | human SCRIB PDZ3-4 tandem (MBP fusion) | automated holdup | peptide, purified PDZ protein | concentration not given, unit not given | reference: biotin control resin, higher = stronger binding | binding intensity | 0.771
Peginesatide | UT7/EPO | tyrosine phosphorylation, LC-MS/MS phosphoproteomics, GluC, measured: SH2B3 tyrosine 572 |  | 10 nM, 15 min, together with: 10 U/mL EPO | reference: vehicle | phosphorylation level | 49.9 fold
CCT6A |  | co-immunoprecipitation | human RBC membrane | unit not given, together with: Band 3 peptide 1-56 bait | reference: negative control | co-IP enrichment | 0
GLAQWIPQV | Jurkat T cells expressing 1G4 TCR | NFAT-eGFP reporter, flow cytometry | peptide | concentration not given, HLA-A*02:01 NY-ESO system |  | reporter activation | 0.079%
triosephosphate isomerase |  | co-immunoprecipitation | human RBC cytosol | DMTMM crosslinker, unit not given, together with: Band 3 peptide 1-56 bait | reference: negative control | co-IP enrichment | 336
GACCGACCGACC (dsDNA) | Fibroin-modulator-binding protein-1 | ITC | double-stranded DNA, one strand shown |  |  | Kd | 12.8 µM
SLLQWIAQV | Jurkat T cells expressing 1G4 TCR | NFAT-eGFP reporter, fluorescence microscopy | peptide | concentration not given, HLA-A*02:01 NY-ESO system |  | reporter activation | 25.1%
GSGAGSETSV | human MAGI1-3/6 PDZ construct (MBP fusion) | automated holdup | peptide, purified PDZ protein | concentration not given, unit not given | reference: biotin control resin, higher = stronger binding | binding intensity | 0.117
ALMQWVSQV | Jurkat T cells expressing 1G4 TCR | NFAT-eGFP reporter, fluorescence microscopy | peptide | concentration not given, HLA-A*02:01 NY-ESO system |  | reporter activation | 22.1%
KITDFGRAKL | HLA class I histocompatibility antigen, A alpha chain allele A*02:01 | conformational ELISA | peptide | concentration not given | reference: positive control peptide, direction not given | binding score | 2.3%
GLGQWVPQV | Jurkat T cells expressing 1G4 TCR | NFAT-eGFP reporter, flow cytometry | peptide | concentration not given, HLA-A*02:01 NY-ESO system |  | reporter activation | 0.22%
PMESGICTIV | human MAGI1-3/6 PDZ construct (MBP fusion) | automated holdup | peptide, crude extract | concentration not given, corrected by standard peak, unit not given | reference: biotin control resin, higher = stronger binding | binding intensity | 0.0743

Repeated from above:
Molecule | target or system | assay | system | conditions | scale | quantity | result
GLGQWVPQV | Jurkat T cells expressing 1G4 TCR | NFAT-eGFP reporter, flow cytometry | peptide | concentration not given, HLA-A*02:01 NY-ESO system |  | reporter activation | 0.22%
PMESGICTIV | human MAGI1-3/6 PDZ construct (MBP fusion) | automated holdup | peptide, crude extract | concentration not given, corrected by standard peak, unit not given | reference: biotin control resin, higher = stronger binding | binding intensity | 0.0743
